Measurements from different studies.
Each line is one published result; not all experiments were run side by side.

Structure (SMILES) = N=C(N)NCCC[C@@H]1NC(=O)[C@H](CCCNC(=N)N)NC(=O)[C@H](CCCNC(=N)N)NC(=O)[C@@H](CCCNC(=N)N)NC(=O)[C@H](Cc2ccc3ccccc3c2)NC(=O)[C@H](Cc2ccc3ccccc3c2)NC(=O)[C@H](Cc2ccc3ccccc3c2)NC1=O; organism = Candida parapsilosis; strain = ATCC 22019; MIC = 8 µg/mL
Structure (SMILES) = Cc1c(CN(C)C(=O)/C=C/c2cnc3c(c2)CC(N)C(=O)N3)oc2ccccc12 (stereo not shown); organism = Klebsiella pneumoniae; technique = broth microdilution; strain = AR-0141; MIC = 8 µg/mL
Structure (SMILES) = N=C(N)NCCC[C@@H]1NC(=O)[C@H](CCCNC(=N)N)NC(=O)[C@@H](CCCNC(=N)N)NC(=O)[C@@H](CCCNC(=N)N)NC(=O)[C@@H](C(c2ccccc2)c2ccccc2)NC(=O)[C@H](Cc2c[nH]c3ccccc23)NC(=O)[C@@H](C(c2ccccc2)c2ccccc2)NC1=O; organism = Candida parapsilosis; strain = ATCC 22019; MIC = 16 µg/mL
Structure (SMILES) = C=C(NC(=O)c1csc(-c2nc3c(cc2O)-c2nc(cs2)C(=O)NC(C(C)O)C(=O)NC(=C(C)OC)c2nc(cs2)C(=O)NC2c4nc(cs4)C(=O)NC(COC(=O)c4c5c6c(cccc6n4O)COC(=O)C(OC4CC(C)(O)C(N(C)C)C(C)O4)C2OC5)c2nc-3cs2)n1)C(N)=O (stereo not shown); organism = Staphylococcus aureus; observed = microbial growth; technique = agar dilution; strain = ATCC29213; MIC = 0.0156 µg/mL
Structure (SMILES) = FC(F)(F)c1cccc(CNc2nc(NC3CCN(Cc4ccccc4)CC3)c3nc[nH]c3n2)c1; organism = Cryptococcus neoformans; observed = microbial growth; technique = broth dilution; time = 72 h; MIC = 50 µg/mL
Structure (SMILES) = COC1C=COC2(C)Oc3c(C)c(O)c4c(c3C2=O)C2=NC3(CCN(CC(C)C)CC3)NC2=C(NC(=O)C(C)=CC=CC(C)C(O)C(C)C(O)C(C)C(OC(=O)Nc2cccnn2)C1C)C4=O (stereo not shown); organism = Mycobacteroides abscessus; technique = broth microdilution; strain = ATCC 19977; MIC = 0.038 µM
Structure (SMILES) = C[C@@H]1C(=O)O[C@@H](C)/C=C/C=C\[C@@H](C)[C@@H]2C=C[C@@H]3C[C@@]4(C)O[C@H]4[C@@H](C)[C@H]3[C@@H]2C(=O)C(Cl)(Cl)C1=O; organism = Staphylococcus aureus; strain = MRSA clinical isolate; setting = resistant: OXA,CIP,MXF; MIC = 0.1 µg/mL
Structure (SMILES) = N=C(N)NCCC[C@@H]1NC(=O)[C@H](CCCNC(=N)N)NC(=O)[C@@H](CCCNC(=N)N)NC(=O)[C@H](C(c2ccccc2)c2ccccc2)NC(=O)[C@H](C(c2ccccc2)c2ccccc2)NC(=O)[C@H](C(c2ccccc2)c2ccccc2)NC(=O)[C@H](CCCNC(=N)N)NC1=O; organism = Candida parapsilosis; strain = ATCC 22019; MIC = 4 µg/mL
Structure (SMILES) = CC1(C)C(NC(=O)C(=NOC2(C(=O)O)CC2)c2csc(N)n2)C(=O)N1OS(=O)(=O)O (stereo not shown); organism = Klebsiella pneumoniae; strain = 17-15, ESBL; setting = compound alone; MIC = 2 µg/mL
Structure (SMILES) = CC1C=CC=CC(C)C2C=CC3CC(C)(O)C(Cl)C(C)C3C2C(=O)C(Cl)(Cl)C(=O)C(C)C(=O)O1 (stereo not shown); organism = Staphylococcus aureus; strain = MSSA clinical isolate; setting = resistant: DAP; MIC = 0.025 µg/mL

Excerpt of the above:
Structure (SMILES) = C=C(NC(=O)c1csc(-c2nc3c(cc2O)-c2nc(cs2)C(=O)NC(C(C)O)C(=O)NC(=C(C)OC)c2nc(cs2)C(=O)NC2c4nc(cs4)C(=O)NC(COC(=O)c4c5c6c(cccc6n4O)COC(=O)C(OC4CC(C)(O)C(N(C)C)C(C)O4)C2OC5)c2nc-3cs2)n1)C(N)=O (stereo not shown); organism = Staphylococcus aureus; observed = microbial growth; technique = agar dilution; strain = ATCC29213; MIC = 0.0156 µg/mL
